Measured values from different studies.
Lines come from different studies, so protocols differ. “And” joins repeats or separate records; there may be more than shown. ± marks the error that the study gave.
Target: Acetylcholinesterase (ache, Electrophorus electricus, UniProt O42275)
UniProt O42275, sequence (whole entry, looked up): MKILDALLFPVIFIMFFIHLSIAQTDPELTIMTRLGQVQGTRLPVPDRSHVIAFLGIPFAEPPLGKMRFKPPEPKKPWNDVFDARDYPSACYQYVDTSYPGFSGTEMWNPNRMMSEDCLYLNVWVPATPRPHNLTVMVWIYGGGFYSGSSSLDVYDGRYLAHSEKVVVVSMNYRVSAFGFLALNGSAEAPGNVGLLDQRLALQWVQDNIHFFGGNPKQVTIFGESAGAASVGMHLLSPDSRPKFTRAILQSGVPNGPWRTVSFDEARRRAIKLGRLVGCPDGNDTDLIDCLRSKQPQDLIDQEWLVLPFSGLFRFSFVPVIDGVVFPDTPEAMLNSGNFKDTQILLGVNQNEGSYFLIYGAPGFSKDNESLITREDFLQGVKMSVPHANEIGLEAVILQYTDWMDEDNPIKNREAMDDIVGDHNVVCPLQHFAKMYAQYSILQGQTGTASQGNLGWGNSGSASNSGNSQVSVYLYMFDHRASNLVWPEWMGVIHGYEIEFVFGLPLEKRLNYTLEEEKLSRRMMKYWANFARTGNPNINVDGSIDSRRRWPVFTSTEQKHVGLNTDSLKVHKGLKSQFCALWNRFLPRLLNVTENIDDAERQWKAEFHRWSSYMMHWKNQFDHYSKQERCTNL
Mode: inhibitor

Compound | effect on | method | pH | IC50
COc1cc2c(cc1OC)C(=O)C(C(O)CC1CCN(Cc3ccccc3)CC1)C2 (stereo not drawn) | enzyme activity | Ellman | – | 0.362 µM
CCN(CCCCOc1c(OC)cc(C(=O)N2CCC(Cc3ccccc3)CC2)cc1OC)Cc1ccccc1 | enzyme activity | Ellman | – | 1.9 µM
Cc1cccc(C[n+]2ccc(NC(=O)CN3C(=O)c4ccccc4C3=O)cc2)c1 | enzyme activity | Ellman | – | 5.4 µM
C[n+]1ccc2c(c1)[nH]c1cc(Br)ccc12 | enzyme activity | – | – | 0.67 µM
CN1CCc2cc3c(c4c2C1C(O)c1ccccc1-4)OCO3 (single isomer, unassigned; (-)) | enzyme activity | – | – | 17.6 µM
COc1cc2c(cc1OC)C(=O)C1(C2)C(c2ccc(Cl)cc2Cl)C(Cc2ccccc2)NC12C(=O)Nc1ccc(OC(F)(F)F)cc12 (stereo not drawn) | enzyme activity | – | pH 8 | 8.49 ± 0.16 µM
Cc1ccc(Nc2c(NC3CCN(Cc4ccccc4)CC3)c(=O)c2=O)cc1 | enzyme activity | Ellman | – | 8.3 µM
O=C(COc1ccc(Sc2ccc(OCC(=O)N/N=C/c3ccccc3Cl)cc2)cc1)N/N=C/c1ccccc1Cl | enzyme activity | – | – | 235 µM
COc1cccc(C2C(Cc3ccccc3)NC3(C(=O)Nc4ccc(OC(F)(F)F)cc43)C23Cc2cc(OC)c(OC)cc2C3=O)c1 (stereo not drawn) | enzyme activity | – | pH 8 | 2.06 ± 0.21 µM
CCCCCc1nc2ccc(/N=N/c3ccc([N+](=O)[O-])cc3)cc2c(-c2ccccc2)c1I | enzyme activity | Ellman | pH 7.4 | 16.8 µM
COc1cc2c(cc1OC)C(=O)C1(C2)C(c2ccc(Cl)cc2)C(Cc2ccccc2)NC12C(=O)Nc1ccc(OC(F)(F)F)cc12 (stereo not drawn) | enzyme activity | – | pH 8 | 11.3 µM and > 10 µM
CC(=O)C1=C(C)NC(SCCCSc2nnc(Cc3ccccc3Nc3c(Cl)cccc3Cl)n2-c2ccc(Cl)c(Cl)c2)=NC1c1ccc(C)cc1 (stereo not drawn) | enzyme activity | Ellman | – | 0.1 µM
CCOC(=O)/C=C/c1c(-c2ccc(C)cc2)nc2ccc(/N=N/c3ccc([N+](=O)[O-])cc3)cc2c1-c1ccccc1 | enzyme activity | Ellman | pH 7.4 | 18.1 µM
C=CCc1ccc(OCc2ccccc2)c(OC)c1 | enzyme activity | Ellman | pH 7.5 | 174 µM
O=C(COc1ccc(Sc2ccc(OCC(=O)N/N=C/c3ccc(O)cc3)cc2)cc1)N/N=C/c1ccc(O)cc1 | enzyme activity | – | – | 74.2 µM
COc1ccc2cc(/C=N/C3CCN(Cc4ccccc4)CC3)ccc2c1 | – | – | – | > 10 µM
O=C(CNC(=S)N/N=C/c1ccc([N+](=O)[O-])cc1)c1ccccc1Cl | enzyme activity | Ellman | – | 110 µM
COc1cc2c(cc1O)C1Cc3ccc(O)c(OC)c3C[N+]1(C)CC2 (stereo not drawn) | enzyme activity | – | – | 11.3 µM

Excerpt of the above:
Compound | effect on | method | pH | IC50
COc1cc2c(cc1OC)C(=O)C1(C2)C(c2ccc(Cl)cc2)C(Cc2ccccc2)NC12C(=O)Nc1ccc(OC(F)(F)F)cc12 (stereo not drawn) | enzyme activity | – | pH 8 | 11.3 µM and > 10 µM
CC(=O)C1=C(C)NC(SCCCSc2nnc(Cc3ccccc3Nc3c(Cl)cccc3Cl)n2-c2ccc(Cl)c(Cl)c2)=NC1c1ccc(C)cc1 (stereo not drawn) | enzyme activity | Ellman | – | 0.1 µM
CCOC(=O)/C=C/c1c(-c2ccc(C)cc2)nc2ccc(/N=N/c3ccc([N+](=O)[O-])cc3)cc2c1-c1ccccc1 | enzyme activity | Ellman | pH 7.4 | 18.1 µM
